Experimental data collected from several papers.
A part holds a random share of what one study measured. Positions count from the first letter of the parent shown.

Block 1 — method: DHFR PCA, deep sequencing; sample: yeast; with: (+)-ABA 0 µM; baseline: wild-type fitted maximum; reading: higher = stronger binding
Target: ABI1, truncated, D143A, DHFR fusion (Arabidopsis thaliana)
Setting: methotrexate growth selection, single substitutions
Starting sequence: PYL1, truncated, DHFR fusion (Arabidopsis thaliana); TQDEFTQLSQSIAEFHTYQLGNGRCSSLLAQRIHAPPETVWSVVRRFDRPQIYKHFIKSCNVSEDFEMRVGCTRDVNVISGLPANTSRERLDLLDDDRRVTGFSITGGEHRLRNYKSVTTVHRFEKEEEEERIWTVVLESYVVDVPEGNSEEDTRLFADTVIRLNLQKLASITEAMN; partner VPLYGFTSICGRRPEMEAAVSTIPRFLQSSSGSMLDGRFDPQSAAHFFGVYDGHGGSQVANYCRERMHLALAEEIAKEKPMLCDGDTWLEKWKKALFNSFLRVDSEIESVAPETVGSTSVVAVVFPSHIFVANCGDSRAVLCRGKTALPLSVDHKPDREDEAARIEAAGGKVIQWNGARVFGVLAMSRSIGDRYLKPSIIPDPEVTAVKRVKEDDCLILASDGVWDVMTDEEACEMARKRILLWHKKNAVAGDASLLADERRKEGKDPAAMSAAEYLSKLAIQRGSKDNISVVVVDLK
`F66M`: “relative binding score” 3.59%.
For `E129R`, “relative binding score” read 14.6%.
`S26P` — result for “relative binding score”: -2.12%.
`V145M`: “relative binding score” -10.5%.
`T86Q` — result for “relative binding score”: 4.02%.
Under “relative binding score”, `F47W` is recorded as -0.34%.

Block 2 — method: RNA Bind-n-Seq; form: RNA; sample: in vitro; tested at: not given; baseline: input RNA pool; reading: higher = stronger binding
Target: RING finger protein unkempt homolog, zinc fingers 1-6, GST-SBP tag (UNK, Homo sapiens, UniProt Q9C0B0, residues 30-357)
Setting: RNA with constant flanks, human and mouse sites, ends assumed
Residues (chain): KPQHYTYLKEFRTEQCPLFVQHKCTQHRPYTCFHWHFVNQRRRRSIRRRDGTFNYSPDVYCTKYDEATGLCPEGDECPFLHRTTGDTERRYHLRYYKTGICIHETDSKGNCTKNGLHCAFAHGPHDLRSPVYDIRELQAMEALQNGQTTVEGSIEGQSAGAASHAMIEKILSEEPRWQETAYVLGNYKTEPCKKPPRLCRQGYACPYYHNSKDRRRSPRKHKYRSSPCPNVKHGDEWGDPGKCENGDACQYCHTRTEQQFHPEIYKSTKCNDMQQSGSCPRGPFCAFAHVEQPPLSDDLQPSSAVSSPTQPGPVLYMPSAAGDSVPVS
`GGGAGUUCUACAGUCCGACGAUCUGCCUUGUUUUGUGUGUUCUAAAUACUUUUUUUAAUGAAAAAAUGUUUUUUGGUUUUAAUGGUGUUACGUGGUUUGUGUAUUAAUUUUUUUUCUUGUCCAUAUCACACCACCAAAGGCUUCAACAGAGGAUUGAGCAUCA` has a bound/input enrichment of 0.289 ratio.
With `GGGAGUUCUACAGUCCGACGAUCUUCUAGUGAAUCUGUGAUAUUGGAAAUUAUUAUUAUGGACAGGGUCAUCCCAUGAAGCCUCAUAGAAUCCGCAUGACCCAUAACUUGCUGUUAAAUUAUGGCUUAUACAGAAAAAUGGAACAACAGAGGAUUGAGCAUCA` the bound/input enrichment was 0.423 ratio.
`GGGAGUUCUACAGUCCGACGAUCAGUGAUCCACCUUACAUGGAAAUGAAGGGAAAGUUGUCAGCGAAGCUUUCUGAAAACAGUAAGAUACUGAUCUCUAUGGCUAAGGAAAACAUACCACCAAAUAGUCAACAGACCAGGGGUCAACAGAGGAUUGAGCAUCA` gave a bound/input enrichment of 0.474 ratio.
The bound/input enrichment of `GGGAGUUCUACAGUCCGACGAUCUCAAUAGAAGAGGAAAGGAAUGUCCCAUUGGCAACUGACUUGAUCCGAAUAAGUCAAUAUAGGUUUACGGUUUCAGACUUGAUGAGAAUGGAAAAGAUUGUAUUGGAGAAGGUGUGUUGGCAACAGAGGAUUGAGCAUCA` is reported as 0.4 ratio.
For `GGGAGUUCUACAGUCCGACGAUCCACUUCUUAAGAGAGAAGAGAGAGGAAGUCAGGGGACACACAGGCUGAGUGGCCGUGUGGUAGUUCUCCUGUCUGUGUAUAAAUAUUUACAUGUUCUGUGUGGUCUGAAUGCAGAAGCUCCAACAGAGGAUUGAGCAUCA`, the bound/input enrichment was 0.215 ratio.
The bound/input enrichment of `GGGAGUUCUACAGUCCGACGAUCACGCCAUCUUUAAGGUUCUGAAUGAGAAGAAACUUCAAGAGGUUGAUAGUUUGUGGAAAGAAUUUGAAACUCCAGAGAAAGCAAAUAAAAUAGUAAAGCUAAAACAUUUUGAGAAAUUUCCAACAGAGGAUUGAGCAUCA` is reported as 0.791 ratio.
With `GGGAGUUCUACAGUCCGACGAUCACCACCCUCUCUGGGGUUCAAGAAGAGUCCGCUCUUUGCUAUCUUCUCCAGGUUGAUGAGUUUAGGUUUUUGUUGGACUGUGGCUGGGAUGAACACUUCUCUGUGGACAUUAUUGAUUCCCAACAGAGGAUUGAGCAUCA` the bound/input enrichment was 0.0485 ratio.
The bound/input enrichment of `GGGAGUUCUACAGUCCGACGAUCUGCUACCAGACACUGACAGGGAUCAAGUUUGUGGUUCUAGCAGAUCCUAGGCAAGCUGGAAUAGAUUCUCUUCUCCGAAAGAUUUAUGAGAUUUACUCAGACUUUGCCCUCAAGAAUCCACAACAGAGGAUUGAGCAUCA` is reported as 0.138 ratio.

Block 3 — target: CCND2, cyclin fold, Cln2 fusion (human); method: yeast growth competition, sequencing; sample: yeast; setting: weak parent motif; baseline: not given; reading: higher = stronger binding
Starting sequence: SLBP docking peptide (human); ARYKRKLLINDFG
Under “normalised enrichment score”, `L8C` is recorded as -0.12.
For `R5D`, “normalised enrichment score” read 0.159.
`I9T` — result for “normalised enrichment score”: 0.134.
`G13K` — result for “normalised enrichment score”: 0.534.
`N10T`: “normalised enrichment score” 0.0389.
`R2H`: “normalised enrichment score” -0.0954.
`A1V`: “normalised enrichment score” 0.426.
`D11R` — result for “normalised enrichment score”: 0.189.
`R5Y` — result for “normalised enrichment score”: 0.138.
For `K6G`, “normalised enrichment score” read 0.402.

Other studies, line by line
`PhoQ, residues 284 288 289 292 302 303 TVTVVA` has a fold induction of 5.65 (PhoP, residues 12 14 15 18 19 IFFTR (Escherichia coli, UniProt P23836); Sort-seq, refers to: YFP reporter; E. coli; PhoQ-PhoP variant library, with: 10 µM Mg2+; baseline: high Mg2+ state, higher = stronger signaling).

Repeated from above (block 2):
`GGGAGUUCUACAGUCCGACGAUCAGUGAUCCACCUUACAUGGAAAUGAAGGGAAAGUUGUCAGCGAAGCUUUCUGAAAACAGUAAGAUACUGAUCUCUAUGGCUAAGGAAAACAUACCACCAAAUAGUCAACAGACCAGGGGUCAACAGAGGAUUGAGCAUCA` gave a bound/input enrichment of 0.474 ratio.
The bound/input enrichment of `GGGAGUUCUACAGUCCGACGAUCUCAAUAGAAGAGGAAAGGAAUGUCCCAUUGGCAACUGACUUGAUCCGAAUAAGUCAAUAUAGGUUUACGGUUUCAGACUUGAUGAGAAUGGAAAAGAUUGUAUUGGAGAAGGUGUGUUGGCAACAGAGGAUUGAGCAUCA` is reported as 0.4 ratio.
For `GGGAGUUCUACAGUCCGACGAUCCACUUCUUAAGAGAGAAGAGAGAGGAAGUCAGGGGACACACAGGCUGAGUGGCCGUGUGGUAGUUCUCCUGUCUGUGUAUAAAUAUUUACAUGUUCUGUGUGGUCUGAAUGCAGAAGCUCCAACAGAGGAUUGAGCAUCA`, the bound/input enrichment was 0.215 ratio.
The bound/input enrichment of `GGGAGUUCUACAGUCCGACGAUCACGCCAUCUUUAAGGUUCUGAAUGAGAAGAAACUUCAAGAGGUUGAUAGUUUGUGGAAAGAAUUUGAAACUCCAGAGAAAGCAAAUAAAAUAGUAAAGCUAAAACAUUUUGAGAAAUUUCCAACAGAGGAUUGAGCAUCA` is reported as 0.791 ratio.
